Experimental data pooled from the literature.
Each numbered part is a random draw from the data of one study; scales do not carry over between parts. Several values in a cell are separate wells, animals, samples, runs or records.
Chain of UniProt Q9UK32 (whole entry, looked up): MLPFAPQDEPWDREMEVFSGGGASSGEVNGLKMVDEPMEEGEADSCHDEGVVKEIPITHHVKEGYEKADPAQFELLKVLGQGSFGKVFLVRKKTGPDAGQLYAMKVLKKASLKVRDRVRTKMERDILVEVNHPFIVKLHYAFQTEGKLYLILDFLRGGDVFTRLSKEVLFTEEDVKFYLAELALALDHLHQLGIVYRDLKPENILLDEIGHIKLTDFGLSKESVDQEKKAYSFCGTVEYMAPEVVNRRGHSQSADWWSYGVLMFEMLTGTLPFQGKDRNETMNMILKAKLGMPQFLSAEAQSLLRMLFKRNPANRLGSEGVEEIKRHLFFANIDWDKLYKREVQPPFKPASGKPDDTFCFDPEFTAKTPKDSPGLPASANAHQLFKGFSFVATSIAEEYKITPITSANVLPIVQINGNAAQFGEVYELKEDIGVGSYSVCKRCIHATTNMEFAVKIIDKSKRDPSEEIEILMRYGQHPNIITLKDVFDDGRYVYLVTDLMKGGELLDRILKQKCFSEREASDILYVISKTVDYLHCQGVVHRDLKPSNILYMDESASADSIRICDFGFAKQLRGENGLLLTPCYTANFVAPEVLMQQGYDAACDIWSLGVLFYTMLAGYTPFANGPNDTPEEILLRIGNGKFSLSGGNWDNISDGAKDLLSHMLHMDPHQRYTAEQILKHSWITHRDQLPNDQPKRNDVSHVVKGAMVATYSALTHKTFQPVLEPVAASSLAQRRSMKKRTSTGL
Chain of UniProt Q9BYP7 (whole entry, looked up): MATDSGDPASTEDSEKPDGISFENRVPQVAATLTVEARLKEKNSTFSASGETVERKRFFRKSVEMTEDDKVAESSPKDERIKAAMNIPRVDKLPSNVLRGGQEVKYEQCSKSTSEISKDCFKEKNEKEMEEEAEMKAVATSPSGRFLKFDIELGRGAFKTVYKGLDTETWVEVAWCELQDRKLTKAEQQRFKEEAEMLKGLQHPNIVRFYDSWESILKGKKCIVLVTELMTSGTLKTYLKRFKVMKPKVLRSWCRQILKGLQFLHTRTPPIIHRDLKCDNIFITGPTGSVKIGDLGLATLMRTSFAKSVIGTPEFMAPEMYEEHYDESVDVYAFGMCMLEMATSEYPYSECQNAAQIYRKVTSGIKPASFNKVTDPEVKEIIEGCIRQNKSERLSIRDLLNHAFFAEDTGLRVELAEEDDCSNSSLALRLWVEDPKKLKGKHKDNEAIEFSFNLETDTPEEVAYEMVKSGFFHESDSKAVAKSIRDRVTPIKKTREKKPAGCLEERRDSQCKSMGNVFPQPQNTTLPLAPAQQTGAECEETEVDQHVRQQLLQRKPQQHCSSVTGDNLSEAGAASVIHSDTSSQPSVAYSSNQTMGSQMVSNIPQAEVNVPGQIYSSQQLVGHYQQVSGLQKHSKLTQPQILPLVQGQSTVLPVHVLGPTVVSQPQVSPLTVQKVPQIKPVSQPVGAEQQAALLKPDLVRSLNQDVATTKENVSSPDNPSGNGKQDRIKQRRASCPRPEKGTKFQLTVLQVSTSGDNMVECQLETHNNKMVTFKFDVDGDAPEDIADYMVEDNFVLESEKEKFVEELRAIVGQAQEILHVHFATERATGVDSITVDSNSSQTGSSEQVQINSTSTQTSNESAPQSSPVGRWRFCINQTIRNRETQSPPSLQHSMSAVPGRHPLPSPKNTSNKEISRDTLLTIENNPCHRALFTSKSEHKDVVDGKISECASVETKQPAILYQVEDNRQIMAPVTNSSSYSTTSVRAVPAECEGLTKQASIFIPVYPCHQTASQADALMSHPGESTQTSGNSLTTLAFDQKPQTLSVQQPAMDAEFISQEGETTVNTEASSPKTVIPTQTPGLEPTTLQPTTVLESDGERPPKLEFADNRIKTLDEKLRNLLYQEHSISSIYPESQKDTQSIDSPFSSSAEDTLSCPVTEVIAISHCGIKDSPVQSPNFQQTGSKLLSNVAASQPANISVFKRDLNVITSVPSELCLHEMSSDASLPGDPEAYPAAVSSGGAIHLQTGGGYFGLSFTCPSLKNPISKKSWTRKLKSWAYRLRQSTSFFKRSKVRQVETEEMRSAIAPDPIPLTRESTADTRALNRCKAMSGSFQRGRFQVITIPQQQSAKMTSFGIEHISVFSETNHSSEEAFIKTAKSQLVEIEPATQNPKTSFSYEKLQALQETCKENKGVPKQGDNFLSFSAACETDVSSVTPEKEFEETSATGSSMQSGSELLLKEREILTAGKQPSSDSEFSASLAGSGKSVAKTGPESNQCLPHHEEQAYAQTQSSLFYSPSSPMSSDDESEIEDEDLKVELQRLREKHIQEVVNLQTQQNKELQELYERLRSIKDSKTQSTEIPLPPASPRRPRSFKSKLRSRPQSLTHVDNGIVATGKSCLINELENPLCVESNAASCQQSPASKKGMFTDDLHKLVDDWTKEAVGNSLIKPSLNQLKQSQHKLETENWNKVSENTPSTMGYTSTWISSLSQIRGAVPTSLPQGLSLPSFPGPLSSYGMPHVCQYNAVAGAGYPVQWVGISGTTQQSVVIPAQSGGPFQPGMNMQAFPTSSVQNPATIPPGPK
Chain of UniProt O94806 (whole entry, looked up): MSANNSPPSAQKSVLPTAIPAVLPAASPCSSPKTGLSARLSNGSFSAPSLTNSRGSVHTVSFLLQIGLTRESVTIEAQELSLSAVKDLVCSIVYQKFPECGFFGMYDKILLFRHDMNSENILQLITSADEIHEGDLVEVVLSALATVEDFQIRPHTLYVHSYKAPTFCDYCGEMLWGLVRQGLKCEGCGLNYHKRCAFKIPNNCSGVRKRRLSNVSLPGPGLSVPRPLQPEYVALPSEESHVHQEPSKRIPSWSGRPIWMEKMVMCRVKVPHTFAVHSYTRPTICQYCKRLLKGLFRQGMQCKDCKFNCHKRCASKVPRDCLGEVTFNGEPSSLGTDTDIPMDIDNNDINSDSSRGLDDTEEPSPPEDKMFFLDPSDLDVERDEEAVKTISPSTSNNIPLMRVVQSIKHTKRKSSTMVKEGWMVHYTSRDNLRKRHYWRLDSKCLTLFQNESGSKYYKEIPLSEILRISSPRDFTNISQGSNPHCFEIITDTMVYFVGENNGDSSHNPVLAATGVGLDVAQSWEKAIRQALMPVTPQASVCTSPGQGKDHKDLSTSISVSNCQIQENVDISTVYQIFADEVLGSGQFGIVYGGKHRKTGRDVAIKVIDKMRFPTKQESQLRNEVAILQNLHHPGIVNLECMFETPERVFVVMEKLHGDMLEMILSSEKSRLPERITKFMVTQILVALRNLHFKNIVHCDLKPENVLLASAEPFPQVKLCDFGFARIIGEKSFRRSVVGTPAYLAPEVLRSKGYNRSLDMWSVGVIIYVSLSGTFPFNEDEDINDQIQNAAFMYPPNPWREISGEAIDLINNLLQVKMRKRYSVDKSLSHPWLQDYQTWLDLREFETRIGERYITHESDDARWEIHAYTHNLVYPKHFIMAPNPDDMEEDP
Chain of UniProt Q52WX2 (whole entry, looked up): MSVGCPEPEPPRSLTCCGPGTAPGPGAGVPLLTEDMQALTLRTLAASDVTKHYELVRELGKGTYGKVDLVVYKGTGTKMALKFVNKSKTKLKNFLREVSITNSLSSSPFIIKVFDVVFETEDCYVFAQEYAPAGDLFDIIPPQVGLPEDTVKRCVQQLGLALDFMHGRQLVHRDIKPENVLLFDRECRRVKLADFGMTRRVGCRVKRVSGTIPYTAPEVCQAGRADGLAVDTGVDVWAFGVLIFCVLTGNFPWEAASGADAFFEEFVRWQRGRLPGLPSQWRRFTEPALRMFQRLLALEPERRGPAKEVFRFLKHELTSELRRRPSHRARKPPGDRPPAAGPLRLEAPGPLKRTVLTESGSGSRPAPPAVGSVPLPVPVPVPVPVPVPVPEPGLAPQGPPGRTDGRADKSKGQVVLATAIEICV
Chain of UniProt P36896 (whole entry, looked up): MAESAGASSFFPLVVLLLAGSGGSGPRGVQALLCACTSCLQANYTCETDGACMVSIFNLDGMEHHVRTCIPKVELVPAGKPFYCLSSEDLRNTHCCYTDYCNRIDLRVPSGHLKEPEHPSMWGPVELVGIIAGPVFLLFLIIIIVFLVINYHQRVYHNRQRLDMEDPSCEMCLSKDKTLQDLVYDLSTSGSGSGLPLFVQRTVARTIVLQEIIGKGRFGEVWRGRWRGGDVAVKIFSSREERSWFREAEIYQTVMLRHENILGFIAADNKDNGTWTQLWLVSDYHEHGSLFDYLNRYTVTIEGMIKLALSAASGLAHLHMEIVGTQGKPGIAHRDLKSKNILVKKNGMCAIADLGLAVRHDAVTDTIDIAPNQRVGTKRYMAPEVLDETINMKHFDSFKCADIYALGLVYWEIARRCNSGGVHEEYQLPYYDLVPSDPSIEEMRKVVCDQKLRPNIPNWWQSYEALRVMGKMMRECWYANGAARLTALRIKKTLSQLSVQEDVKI

Study 1
Compound: CC1=C(C#N)C(c2ccc3c(c2)c(NC(=O)c2ccccc2C)nn3C)C(C#N)=C(C)N1
Technique: competition with immobilised ligand
Concentration: 1 µM
NEK3 (Homo sapiens, UniProt P51956); cell-free assay — remaining binding: 94%.
The remaining binding was 100% (MYLK4 (Homo sapiens, UniProt Q86YV6); cell-free assay).
For SRC (Homo sapiens, UniProt P12931); cell-free assay: remaining binding read 89%.
For WNK3 (Homo sapiens, UniProt Q9BYP7); cell-free assay: remaining binding read 82%.
It gave 52% for remaining binding (EGFR (Homo sapiens, UniProt P00533, del746-750); cell-free assay).
For STK36 (Homo sapiens, UniProt Q9NRP7); cell-free assay: remaining binding read 87%.
MYLK2 (Homo sapiens, UniProt Q9H1R3); cell-free assay — remaining binding: 89%.
The remaining binding was 27% (MET (Homo sapiens, UniProt P08581, M1250T); cell-free assay).
PRKD3 (Homo sapiens, UniProt O94806); cell-free assay — remaining binding: 72%.
It gave 87% for remaining binding (CDK13 (Homo sapiens, UniProt Q14004); cell-free assay).
STK16 (Homo sapiens, UniProt O75716); cell-free assay — remaining binding: 83%.
For CSNK1A1L (Homo sapiens, UniProt Q8N752); cell-free assay: remaining binding read 97%.
For Aurora kinase C (AURKC, Homo sapiens, UniProt Q9UQB9); cell-free assay: remaining binding read 97%.
For FGFR1 (Homo sapiens, UniProt P11362); cell-free assay: remaining binding read 97%.
For CDKL1 (Homo sapiens, UniProt Q00532); binding: remaining binding read 72%.
Ribosomal protein S6 kinase alpha-4, N-terminal kinase domain (RPS6KA4, Homo sapiens, UniProt O75676); cell-free assay — remaining binding: 100%.
The remaining binding was 88% (Non-receptor tyrosine-protein kinase TYK2, JH1 (TYK2, Homo sapiens, UniProt P29597); cell-free assay).
It gave 80% for remaining binding (ACVR1B (Homo sapiens, UniProt P36896); cell-free assay).
The remaining binding was 98% (SBK1 (Homo sapiens, UniProt Q52WX2); cell-free assay).
It gave 83% for remaining binding (Ribosomal protein S6 kinase alpha-6, C-terminal kinase domain (RPS6KA6, Homo sapiens, UniProt Q9UK32); cell-free assay).

Study 2
Target: Calcium/calmodulin-dependent protein kinase type II subunit alpha (CAMK2A, Homo sapiens, UniProt Q9UQM7)
Chain of UniProt Q9UQM7 (whole entry, looked up): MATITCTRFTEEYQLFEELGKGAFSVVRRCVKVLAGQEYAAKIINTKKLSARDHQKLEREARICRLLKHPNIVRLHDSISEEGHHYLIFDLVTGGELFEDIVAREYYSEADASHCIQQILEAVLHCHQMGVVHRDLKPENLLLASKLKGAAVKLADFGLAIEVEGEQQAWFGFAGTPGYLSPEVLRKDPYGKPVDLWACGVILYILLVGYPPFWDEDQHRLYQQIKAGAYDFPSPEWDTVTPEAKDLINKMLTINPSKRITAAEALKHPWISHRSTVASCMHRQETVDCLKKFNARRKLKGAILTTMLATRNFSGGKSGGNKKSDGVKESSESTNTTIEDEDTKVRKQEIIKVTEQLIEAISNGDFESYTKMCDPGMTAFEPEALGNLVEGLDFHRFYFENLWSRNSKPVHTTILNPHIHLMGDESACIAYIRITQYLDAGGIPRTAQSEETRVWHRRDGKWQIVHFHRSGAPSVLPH
Observed: enzyme activity
Mode: inhibitor
Concentration: 10 µM
For `CN1C2=CC(=O)/C(=N\NC(N)=O)C=C2CC1S(=O)(=O)O` (stereo not drawn), the inhibition was -3%.
The inhibition of `NS(=O)(=O)c1cc2c(cc1C(F)(F)F)NC(Cc1ccccc1)NS2(=O)=O` (stereo not drawn) is reported as -6%.
`C[C@@H]1C(=O)O[C@H](C)[C@H]1C[C@@H](O)[C@](C)(O)[C@H]1CC[C@@]2(O)C3=CC(=O)[C@@H]4C[C@@H](O)[C@@H](O)C[C@]4(C)[C@H]3CC[C@]12C` has an inhibition of 42%.
The inhibition of `COc1cc2c(c(OC)c1OC)-c1c(cc(OC)c(OC)c1OC)C[C@](C)(O)[C@@H](C)C2` is reported as -27%.
`C=CC[C@@H]1/C=C(\C)C[C@H](C)C[C@H](OC)[C@H]2O[C@@](O)(C(=O)C(=O)N3CCCC[C@H]3C(=O)O[C@H](/C(C)=C/[C@@H]3CC[C@@H](O)[C@H](OC)C3)[C@H](C)[C@@H](O)CC1=O)[C@H](C)C[C@@H]2OC` has an inhibition of 5%.
`O=C(O)[C@@H]1Cc2nc[nH]c2CN1` has an inhibition of 8%.
With `CC(=O)OCC1=C[C@H](O)[C@@H]2C(C(=O)O)=CO[C@@H](O[C@@H]3O[C@H](CO)[C@@H](O)[C@H](O)[C@H]3O)[C@H]12` the inhibition was 22%.
With `C[C@H]1[C@H](C)CC[C@]2(C(=O)O)CC[C@]3(C)C(=CC[C@@H]4[C@@]5(C)C[C@@H](O)[C@H](O)[C@@](C)(CO)[C@@H]5[C@H](O)C[C@]43C)[C@H]12` the inhibition was -5%.
`CC1(C)Oc2cc3oc(-c4cc(O)cc(O[C@@H]5OC[C@@H](O)[C@H](O)[C@H]5O)c4)cc3cc2CC1O` (stereo partly drawn) has an inhibition of -29%.
With `O=c1cc(-c2ccc(O)cc2)oc2cc(O)cc(O)c12` the inhibition was -11%.

Study 3
Cell line: mouse MPNST tumor cells
Technique: high-content immunofluorescence imaging
Measured: nuclear SOX9
Concentration: 10 µM
Time: 12 h
Notes: mean of 2 replicates
Reference: DMSO control
Direction: higher = more nuclear SOX9
For `Cc1[nH]cnc1CN1CCc2c(c3ccccc3n2C)C1=O`, “nuclear SOX9 intensity” read 88.9 % of DMSO.
For `Cc1cc2sc(NC(=O)Cc3ccccc3)nc2cc1Cl`, “nuclear SOX9 intensity” read 108 % of DMSO.
Under “nuclear SOX9 intensity”, `COc1ccc(Cn2ccc3ccc(C(=O)NO)cc32)cc1` is recorded as 103 % of DMSO.
`CC1(C)O[C@@H]2C[C@H]3[C@@H]4CCC5=CC(=O)C=C[C@]5(C)[C@H]4[C@@H](O)C[C@]3(C)[C@]2(C(=O)CO)O1`: “nuclear SOX9 intensity” 74.6 % of DMSO.
For `C[C@@H]1CCC[C@H](C)N1NC(=O)c1ccc(Cl)c(S(N)(=O)=O)c1`, “nuclear SOX9 intensity” read 107 % of DMSO.
Under “nuclear SOX9 intensity”, `CN(C)c1ccc(C(=O)NCCCCCCC(=O)NO)cc1` is recorded as 132 % of DMSO.
`N#Cc1ccc(NC(=O)Nc2ccccc2Br)c2n[nH]nc12` — result for “nuclear SOX9 intensity”: 105 % of DMSO.
For `CCOc1nc2cccc(C(=O)OCc3oc(=O)oc3C)c2n1Cc1ccc(-c2ccccc2-c2noc(=O)[nH]2)cc1`, “nuclear SOX9 intensity” read 99 % of DMSO.
For `CCOC(=O)[C@H](CCc1ccccc1)N[C@@H](C)C(=O)N1[C@H](C(=O)O)C[C@@H]2CCC[C@@H]21`, “nuclear SOX9 intensity” read 102 % of DMSO and 100 % of DMSO.
`Nc1nc(N)c2nc(-c3cccc(Cl)c3)c(N)nc2n1`: “nuclear SOX9 intensity” 106 % of DMSO.
`CN(C(=O)C(Cl)Cl)c1ccc(OC(=O)c2ccco2)cc1` — result for “nuclear SOX9 intensity”: 91.5 % of DMSO.
`O=C1[C@@H]2[C@H]3CC[C@H](C3)[C@@H]2C(=O)N1CCCCN1CCN(c2ncccn2)CC1` — result for “nuclear SOX9 intensity”: 98 % of DMSO.
For `O=c1oc2ccccc2c(O)c1Cc1c(O)c2ccccc2oc1=O`, “nuclear SOX9 intensity” read 105 % of DMSO.

Study 4
Cell line: HaCaT
Concentration: 100 µM
Time: 18 h
The viability of `Cc1ccc(Cl)c(Nc2ccccc2C(=O)O)c1Cl` is reported as 70%.
`O=C1NCC2(CCN(CCc3ccccc3)CC2)O1` gave a viability of 107%.
With `CN1CCN(CCCN2c3ccccc3Sc3ccc(C(F)(F)F)cc32)CC1` the viability was 17.1%.
`Cn1c(=O)c2c(ncn2CC(=O)O)n(C)c1=O` has a viability of 110%.
`Cc1ccc(C(=O)C(C)CN2CCCCC2)cc1` (stereo not drawn) gave a viability of 107%.
`Cc1nc(Nc2ccc(F)cc2)nc(N2CCc3ccccc3C2C)c1C` (stereo not drawn) gave a viability of 18.5%.
`COc1cc2nc(N3CCN(C(=O)c4ccco4)CC3)nc(N)c2cc1OC` gave a viability of 38.5%.
`O=C(O)c1cc(-c2ccccc2)nc2ccccc12` has a viability of 80.1%.
`CC(C)C[C@H](NC(=O)[C@H](Cc1ccccc1)NC(=O)c1cnccn1)B(O)O` has a viability of 22%.
For `C=CCN1CCCC1CNC(=O)c1cc2[nH]nnc2cc1OC` (stereo not drawn), the viability was 96.2%.
With `Cc1c(OCC(F)(F)F)ccnc1C[S+]([O-])c1nc2ccccc2[nH]1` (stereo not drawn) the viability was 75.1%.
`O=C(O)c1ccc(O)c(O)c1` has a viability of 116%.
The viability of `CCCCCCCC(=O)N[C@H](CN1CCCC1)[C@H](O)c1ccc2c(c1)OCCO2` is reported as 91.8%.
`COc1ccc(OC)c(C(O)CNC(=O)CN)c1` (stereo not drawn) has a viability of 99.1%.
With `CC(C(=O)O)c1ccc2c(c1)Cc1cccnc1O2` (stereo not drawn) the viability was 98.6%.
The viability of `N#Cc1ccc2[nH]cc(CCCCN3CCN(c4ccc5oc(C(N)=O)cc5c4)CC3)c2c1` is reported as 18.9%.
`CCCCC1=NC2(CCCC2)C(=O)N1Cc1ccc(-c2ccccc2-c2nnn[nH]2)cc1` gave a viability of 100%.
